{"data": "Measured values collected from several papers", "TEC": "Tyrosine-protein kinase Tec (TEC, Homo sapiens, UniProt P42680)", "UCHL1": "Ubiquitin carboxyl-terminal hydrolase isozyme L1 (UCHL1, Homo sapiens, UniProt P09936)", "note": "Protocols differ between the studies behind these lines. ± gives the spread as reported.", "chain of UniProt P42680 (whole entry, looked up)": "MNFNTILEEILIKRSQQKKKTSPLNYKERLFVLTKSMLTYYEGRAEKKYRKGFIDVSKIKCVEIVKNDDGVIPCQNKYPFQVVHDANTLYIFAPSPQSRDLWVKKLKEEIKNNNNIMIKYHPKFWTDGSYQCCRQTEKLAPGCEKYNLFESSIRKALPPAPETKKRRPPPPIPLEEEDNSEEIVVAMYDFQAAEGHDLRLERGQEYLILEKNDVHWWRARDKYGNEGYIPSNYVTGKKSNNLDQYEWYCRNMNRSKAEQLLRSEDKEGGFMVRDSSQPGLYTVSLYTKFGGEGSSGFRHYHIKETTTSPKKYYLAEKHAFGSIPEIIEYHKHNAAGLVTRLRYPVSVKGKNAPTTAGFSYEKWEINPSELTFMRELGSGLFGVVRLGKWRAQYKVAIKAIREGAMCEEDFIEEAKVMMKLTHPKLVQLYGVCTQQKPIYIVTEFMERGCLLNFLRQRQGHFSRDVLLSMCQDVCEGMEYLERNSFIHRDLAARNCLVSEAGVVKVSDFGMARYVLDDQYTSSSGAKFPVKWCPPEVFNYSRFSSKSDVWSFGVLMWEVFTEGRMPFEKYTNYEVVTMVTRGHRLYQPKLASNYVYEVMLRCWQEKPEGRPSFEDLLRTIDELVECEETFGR", "chain of UniProt P09936 (whole entry, looked up)": "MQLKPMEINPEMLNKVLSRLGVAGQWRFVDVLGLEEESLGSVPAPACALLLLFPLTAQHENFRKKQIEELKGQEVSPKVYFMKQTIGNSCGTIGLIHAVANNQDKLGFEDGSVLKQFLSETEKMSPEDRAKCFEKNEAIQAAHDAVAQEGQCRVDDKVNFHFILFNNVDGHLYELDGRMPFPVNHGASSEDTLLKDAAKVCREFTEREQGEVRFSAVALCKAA"}
{"SMILES": "COc1cc(-c2cncc3c2CN(C)Cc2cc(N4CCNCC4)ccc2-3)cc(OC)c1OC", "target": "TEC", "assay": "kinase activity", "conditions": "1 µM, added: ATP 10 µM", "how to read": "reference: DMSO control", "endpoint": "remaining activity", "result": "107%"}
{"SMILES": "C=CC(=O)N1CCC[C@@H](n2nc(-c3ccc(Oc4ccccc4)cc3)c3c(N)ncnc32)C1", "target": "TEC", "conditions": "10 µM", "endpoint": "remaining activity", "result": "97.9%"}
{"SMILES": "C#Cc1cc(-c2cc(Nc3nc(N[C@@H](C)c4ccc(F)cn4)ncc3Cl)n[nH]2)ccc1C=O", "target": "TEC", "assay": "enzyme activity, inhibitor", "conditions": "0.2 µM", "endpoint": "inhibition", "result": "12.1%"}
{"SMILES": "COc1ccc(F)cc1C(=O)NCc1ccc(-c2nn([C@@H](C)C(F)(F)F)c(N)c2C(N)=O)cc1", "target": "TEC", "assay": "kinase activity, inhibitor, HotSpot radiometric", "conditions": "1000 nM, added: ATP at Km", "endpoint": "remaining activity", "result": "64.6 ± 1%"}
{"SMILES": "C#Cc1cccc(Oc2ccc(-c3nn([C@@H]4CCCN(C(=O)C=C)C4)c4ncnc(N)c34)cc2)c1", "target": "TEC", "assay": "ABPP-SILAC", "conditions": "1 µM, 1 h", "how to read": "reference: DMSO", "endpoint": "SILAC ratio", "result": 20}
{"SMILES": "O=C(CCl)NC1CCN(C(=O)C2COc3ccccc3O2)CC1 (centres unmarked)", "target": "UCHL1", "assay": "covalent, intact protein LC-MS", "conditions": "12.5 µM", "endpoint": "labelling", "result": "9.18%"}
{"SMILES": "C=CC(=O)Nc1cccc(Nc2nc(Nc3ccc(OCCOC)cc3)ncc2F)c1", "target": "TEC", "assay": "covalent inhibitor, COOKIE-Pro", "test system": "permeabilized Ramos", "conditions": "25 nM, 2 min", "endpoint": "target occupancy", "result": "~80%"}
{"SMILES": "CC(C)[C@H](NC(=O)c1cc(-c2cnn3cc(-c4ccc(OCCN5CCCCC5)cc4)cnc23)cs1)C(F)(F)F", "target": "TEC", "assay": "radiometric kinase", "conditions": "15 nM", "how to read": "reference: TEC over ULK1", "endpoint": "relative inhibition", "result": 0}
{"SMILES": "C=CC(=O)N1CCC(COCC(=O)N2CCN(c3nc(-c4cnc(N)nc4C(F)F)nc(N4CCOC[C@@H]4C)n3)CC2)CC1", "target": "TEC", "assay": "KINOMEscan", "conditions": "1 µM", "endpoint": "remaining binding", "result": "94%"}
{"SMILES": "O=C(NC1CCC1)c1ccc2nc(-c3cccc(NS(=O)(=O)NCCN4CCCCC4)c3)cn2c1", "target": "TEC", "assay": "enzyme activity", "conditions": "10 µM", "endpoint": "remaining activity", "result": "100%"}
{"SMILES": "Cc1nc(Nc2ncc(C(=O)Nc3c(C)cccc3Cl)s2)cc(N2CC[C@H](O)C2)n1", "target": "TEC", "conditions": "0.001 µM", "endpoint": "inhibition", "result": "82%"}
{"SMILES": "Cc1cc(Nc2cc(N3CCN(C)CC3)nc(Sc3ccc(NC(=O)C4CC4)cc3)n2)[nH]n1", "target": "TEC", "conditions": "0.03 µM", "how to read": "reference: control", "endpoint": "remaining activity", "result": "105%"}
{"SMILES": "[2H]c1cc(C)c(NC(=O)c2cnc(Nc3cc(N4CCC(O)CC4)nc(C)n3)s2)c(Cl)c1", "target": "TEC", "conditions": "0.001 µM", "endpoint": "inhibition", "result": "> 50%"}
{"SMILES": "O=CC12c3ccccc3C(c3ccccc31)C1C(=O)N(c3ccc(F)cc3)C(=O)C12 (centres unmarked)", "target": "UCHL1", "assay": "covalent, intact protein LC-MS", "conditions": "12.5 µM", "endpoint": "labelling", "result": "13.3%"}
